# Measurements of several laboratories.
# ± marks the error that the study gave.
Structure (SMILES),cell line,assay,conditions,IC50 [µM]
Cc1cc(C)c(-n2ccn(-c3c(C)cc(C)cc3C)c2=[Se])c(C)c1.[Cl][Au],H157 spheroids,acid phosphatase,"72 h, 3D spheroid",7.6 ± 0.8
CC1=C2[C@@H](O)[C@H](C(=O)O)CC[C@@]2(C)CCC1=O,human Neutrophil,"elastase release, inhibitor",,> 10
C=C1C(=O)O[C@H]2C[C@H](C)C(/C=C/C(C)=O)=CC[C@H]12,L1210,"cell growth or viability, MTT",24 h,12.3
CNC(=O)c1cc(Oc2ccc(NC(=O)c3ccc(-c4ccc(COC(=O)CCC(=O)OC5OC6OC7(C)CCC8C(C)CCC(C5C)C68OO7)cc4)cn3)cc2)ccn1 (stereo not shown),Huh-7,"cell growth or viability, MTT",72 h,7.79
O=C(O)c1ccc([PH]([Au][Cl])(c2ccccc2)c2ccccc2)cc1,MDA-MB-157,"cell growth or viability, resazurin",72 h,6.7
Cc1nn(-c2ccccc2)c(O)c1C(c1ccc(F)cc1)c1c(C)nn(-c2ccccc2)c1O,various human cancer cell lines,"cell growth, MTT",,5.45 to 18.3
C1N2CN3CN1CP(C2)C3.CC(C)OC(=O)C(n1cccn1)n1cccn1.F[P-](F)(F)(F)(F)F.[Cu+],U-1285,"cell viability, MTT",,21.3 ± 2.3
C1=C[N]2c3c4c(ccc3=C1)=CC=C[N]4[Ru+2]213([N]2C=CC=c4ccc5c(c42)[N]1C=CC=5)[N]1C=CC=c2c1c1c(c4nc5c6cccnc6c6ncccc6c5nc24)=CC=C[N]13,NCI-H358,"cell growth or viability, MTT",96 h,44
CC[C@@H](C)[C@@H](NC(=O)[C@@H](CCCCN)NC(=O)[C@H](NC(=O)[C@@H](CCC(N)=O)NC(=O)[C@H](N)CCCNC(=N)N)[C@H](C)CC)C(=O)N[C@H](Cc1c[nH]c2ccccc12)C(=O)N[C@H](Cc1ccccc1)C(=O)N[C@H](CCC(N)=O)C(=O)N[C@H](CC(N)=O)C(=O)N[C@H](CCCNC(=N)N)C(=O)N[C@H](CCCNC(=N)N)C(=O)N[C@H](CCSC)C(=O)N[C@H](CCCCN)C(=O)N[C@H](Cc1c[nH]c2ccccc12)C(=O)N[C@H](CCCCN)C(=O)N[C@H](CCCCN)C(=O)N[C@H](CO)C(=O)N[C@H](Cc1c[nH]c2ccccc12)C(=O)N[C@@H](C(=O)N[C@H](Cc1c[nH]c2ccccc12)C(=O)N[C@H](CCC(=O)O)C(=O)N[C@H](CCCCN)C(=O)N[C@H](CCCCN)C(=O)N[C@H](CC(C)C)C(=O)N[C@H](CCC(=O)O)C(=O)N[C@@H](C(=O)N[C@H](C)C(=O)N[C@@H](C(=O)N[C@H](CC(N)=O)C(=O)N[C@H](CC(C)C)C(=O)N[C@H](C)C(=O)N[C@H](Cc1c[nH]c2ccccc12)C(=O)N[C@@H](C(=O)N[C@H](C)C(=O)NCC(=O)N[C@H](CC(N)=O)C(=O)N[C@H](CO)C(=O)N[C@H](CC(N)=O)C(=O)N[C@H](CCCCN)C(=O)N[C@H](Cc1c[nH]c2ccccc12)C(=O)N[C@@H](C(=O)N[C@H](Cc1c[nH]c2ccccc12)C(=O)N[C@H](CCCCN)C(=O)O)[C@H](C)O)[C@H](C)O)C(C)C)[C@H](C)O)[C@H](C)O,CLL patient PBMCs,"cell death, PI staining flow cytometry","90 min, room temperature, serum-free medium",0.7
O=C(Nc1ccc(Br)cc1)c1cc(Br)cc(Br)c1O,PANC-1,"cell growth or viability, resazurin",72 h,10.2
